# Measurements collected from several papers.
# Each line is one published result; not all experiments were run side by side.
# Organism: Candida albicans
SMILES,test,test system,setting,MIC
COC(=O)c1ccc(COC(CN2CCN(C(=O)Nc3ccccc3C)CC2)c2ccc(Cl)cc2)cc1 (centres unmarked),"microbial growth, broth dilution",DSY654,,4 µg/mL
CCCCCCCC(=O)NCCCC[C@H](NC(=O)CCCCCCC)C(=O)N[C@@H](CCCCNC(=O)CCCCCCC)C(=O)NCC(=O)NCC(=O)NCC(=O)N[C@@H](CS)C(=O)N[C@@H](CCCNC(=N)N)C(=O)N[C@@H](CCCCN)C(=O)N1CCC[C@H]1C(=O)N[C@@H](CS)C(=O)N[C@@H](CCCNC(=N)N)C(=O)N[C@@H](CCCCN)C(=O)N1CCC[C@H]1C(=O)N[C@@H](CS)C(=O)N[C@@H](CCCNC(=N)N)C(=O)N[C@@H](CCCCN)C(=O)N1CCC[C@H]1C(N)=O,broth microdilution,"CGMCC 2.209, RPMI-1640","48 h, 30 °C",16 µM
O=C(CCCN1CCC(O)(c2ccc(Cl)cc2)CC1)c1ccc(F)cc1,,DSY654 (Cdr efflux pump knockout),"24 h, 35 °C",4 µg/mL
CCCCCCCCCCCC(=O)NCCCC[C@H](NC(=O)CCCCCCCCCCC)C(=O)N[C@@H](CCCCNC(=O)CCCCCCCCCCC)C(=O)NCC(=O)NCC(=O)NCC(=O)N[C@@H](CS)C(=O)N[C@@H](CCCNC(=N)N)C(=O)N[C@@H](CCCCN)C(=O)N1CCC[C@H]1C(=O)N[C@@H](CS)C(=O)N[C@@H](CCCNC(=N)N)C(=O)N[C@@H](CCCCN)C(=O)N1CCC[C@H]1C(N)=O,broth microdilution,"CGMCC 2.209, RPMI-1640","48 h, 30 °C",> 128 µM
CC[C@H](C)[C@H](NC(=O)[C@H](C)NC(=O)[C@@H](NC(=O)[C@H](CC(=O)O)NC(=O)[C@H](CCCCN)NC(=O)[C@H](CO)NC(=O)[C@@H](NC(=O)[C@H](CC(N)=O)NC(=O)[C@H](C)NC(=O)[C@@H](NC(=O)[C@H](CCC(=O)O)NC(=O)[C@H](CCCCN)NC(=O)[C@@H](NC(=O)[C@@H](NC(=O)[C@H](Cc1c[nH]cn1)NC(=O)[C@H](CCCCN)NC(=O)[C@@H](NC(=O)[C@H](CCCCN)NC(=O)[C@H](CCCCN)NC(=O)[C@@H](NC(=O)[C@H](CC(C)C)NC(=O)[C@H](CCCCN)NC(=O)[C@H](CC(N)=O)NC(=O)[C@H](Cc1ccccc1)NC(=O)[C@H](CCCNC(=N)N)NC(=O)[C@H](CCCCN)NC(=O)[C@H](CCCNC(=N)N)NC(=O)[C@H](Cc1ccccc1)NC(=O)CN)C(C)C)C(C)C)[C@@H](C)O)[C@@H](C)CC)[C@@H](C)O)C(C)C)C(C)C)C(=O)N[C@H](C(=O)N[C@@H](C)C(=O)NCC(=O)N[C@@H](CO)C(=O)NCC(=O)N[C@H](C(=O)N[C@@H](C)C(=O)N[C@H](C(=O)NCC(=O)N[C@@H](C)C(=O)N[C@@H](C)C(=O)N[C@@H](CCSC)C(N)=O)C(C)C)C(C)C)C(C)C,broth microdilution,"FH2173, CAMHB",,> 1020 µg/mL
C=C1NC(=O)C2CSCC3NC(=O)C(CSC(C)C(NC(=S)C(Cc4cnc[nH]4)NC(=O)c4csc(C(C)NC(C)=O)n4)C(=O)N[C@H](CC(C)C(=O)NC(=O)CC(C(=O)O)NC(=O)C(C)NC3=O)C(=O)N2)NC(=O)[C@@H]2CCCN2C(=O)[C@@H](CC(C)C)NC1=O (some centres unmarked),EUCAST broth microdilution,"clinical isolate, RPMI 1640 with MOPS","pH 7.0, 37 °C, 2% glucose",> 32 µg/mL
CN(C=O)CP(=O)(O)O,"microbial growth, broth dilution",SC5314,24 h,> 128 µg/mL
N=C(N)NCCC[C@H](NC(=O)[C@H](CCCNC(=N)N)NC(=O)[C@H](Cc1ccccc1)NC(=O)[C@H](CO)NC(=O)[C@H](Cc1ccccc1)NC(=O)[C@H](Cc1c[nH]c2ccccc12)NC(=O)[C@H](Cc1ccccc1)NC(=O)[C@H](CO)NC(=O)[C@H](Cc1ccccc1)NC(=O)[C@H](CCCNC(=N)N)NC(=O)[C@@H](N)CCCNC(=N)N)C(N)=O,,"CGMCC 2.209, RPMI 1640 MOPS-buffered","48 h, 37 °C, tested up to 128 µM",2 µM
CCCCCC(=O)NCCCC[C@H](NC(=O)CCCCC)C(=O)N[C@@H](CCCCNC(=O)CCCCC)C(=O)NCC(=O)NCC(=O)NCC(=O)N[C@@H](CS)C(=O)N[C@@H](CCCNC(=N)N)C(=O)N[C@@H](CCCCN)C(=O)N1CCC[C@H]1C(=O)N[C@@H](CS)C(=O)N[C@@H](CCCNC(=N)N)C(=O)N[C@@H](CCCCN)C(=O)N1CCC[C@H]1C(N)=O,broth microdilution,"56452, RPMI-1640","48 h, 30 °C",8 µM
COC(=O)c1ccc(COC(CN2CCN(C(=O)NCc3ccc(OC)cc3)CC2)c2ccc(Cl)cc2)cc1 (centres unmarked),"microbial growth, broth dilution",DSY654,,8 µg/mL
CC[C@H](C)[C@H](NC(=O)[C@H](CCCCN)NC(=O)[C@@H](NC(=O)[C@@H](NC(=O)[C@H](CC(C)C)NC(=O)[C@H](CCCNC(=N)N)NC(=O)[C@@H](NC(=O)[C@H](CC(C)C)NC(=O)[C@H](CCCNC(=N)N)NC(=O)CNC(=O)[C@H](Cc1ccccc1)NC(=O)[C@@H](N)CCCNC(=N)N)[C@@H](C)CC)[C@@H](C)CC)C(C)C)C(=O)N[C@@H](C)C(=O)N[C@@H](CCCNC(=N)N)C(=O)N[C@@H](CCCNC(=N)N)C(=O)N[C@@H](C)C(=O)N[C@@H](Cc1c[nH]cn1)C(=O)N[C@@H](CCCNC(=N)N)C(=O)N[C@@H](C)C(=O)N[C@@H](CCCNC(=N)N)C(=O)N[C@@H](CO)C(=O)N[C@@H](C)C(=O)N[C@H](C(=O)N[C@@H](CCCCN)C(=O)N[C@@H](C)C(=O)N[C@@H](C)C(=O)N[C@@H](CO)C(=O)N[C@@H](CC(N)=O)C(=O)N[C@H](C(=O)N[C@@H](C)C(=O)N[C@@H](C)C(=O)N[C@@H](CC(C)C)C(=O)N[C@@H](C)C(=O)N[C@@H](Cc1c[nH]cn1)C(=O)NCC(=O)N[C@@H](C)C(N)=O)C(C)C)C(C)C,broth microdilution,,"36 h, 35 °C",≤ 0.064 µM
CN(C=O)CP(=O)(O)CCC(=O)O,"microbial growth, broth dilution",SC5314,24 h,> 128 µg/mL
CC(C)C[C@H](NC(=O)[C@H](CC(C)C)NC(=O)[C@H](CCCCN)NC(=O)CNC(=O)[C@H](CC(C)C)NC(=O)CNC(=O)[C@H](CO)NC(=O)[C@H](CC(C)C)NC(=O)[C@H](CC(C)C)NC(=O)[C@H](CO)NC(=O)[C@H](CCCCN)NC(=O)[C@H](CC(C)C)NC(=O)[C@H](CCCCN)NC(=O)[C@H](CCCCN)NC(=O)[C@H](C)NC(=O)[C@H](C)NC(=O)[C@H](C)NC(=O)CNC(=O)[C@H](CO)NC(=O)[C@H](Cc1c[nH]c2ccccc12)NC(=O)[C@@H](N)CCCCN)C(=O)O,broth microdilution,ATCC 10231,"44 h, 37 °C",100 µM
CCCCCCCC(=O)NCCCC[C@H](NC(=O)CCCCCCC)C(=O)N[C@@H](CCCCNC(=O)CCCCCCC)C(=O)NCC(=O)NCC(=O)NCC(=O)N[C@@H](CS)C(=O)N[C@@H](CCCNC(=N)N)C(=O)N[C@@H](CCCCN)C(=O)N1CCC[C@H]1C(=O)N[C@@H](CS)C(=O)N[C@@H](CCCNC(=N)N)C(=O)N[C@@H](CCCCN)C(=O)N1CCC[C@H]1C(=O)N[C@@H](CS)C(=O)N[C@@H](CCCNC(=N)N)C(=O)N[C@@H](CCCCN)C(=O)N1CCC[C@H]1C(=O)N[C@@H](CS)C(=O)N[C@@H](CCCNC(=N)N)C(=O)N[C@@H](CCCCN)C(=O)N1CCC[C@H]1C(N)=O,broth microdilution,"14936, RPMI-1640","48 h, 30 °C",8 µM
CC[C@H](C)[C@H](NC(=O)CNC(=O)[C@H](CC(=O)O)NC(=O)[C@H](CCCNC(=N)N)NC(=O)[C@@H](NC(=O)[C@H](Cc1c[nH]cn1)NC(=O)[C@H](CCC(N)=O)NC(=O)CNC(=O)[C@@H](NC(=O)[C@H](CCCNC(=N)N)NC(=O)[C@H](CCC(=O)O)NC(=O)[C@@H](NC(=O)[C@H](CCCCN)NC(=O)[C@H](CCCCN)NC(=O)[C@H](Cc1ccccc1)NC(=O)[C@@H](NC(=O)[C@H](CCCCN)NC(=O)[C@H](Cc1c[nH]c2ccccc12)NC(=O)[C@@H](N)CCCCN)[C@@H](C)CC)[C@@H](C)CC)C(C)C)C(C)C)C(=O)N[C@H](C(=O)N[C@@H](CCCCN)C(=O)N[C@@H](C)C(=O)NCC(=O)N[C@@H](CO)C(=O)N[C@@H](C)C(=O)N[C@H](C(=O)N[C@@H](CCC(N)=O)C(=O)N[C@H](C(=O)N[C@H](C(=O)NCC(=O)N[C@@H](CCC(N)=O)C(=O)N[C@@H](C)C(=O)N[C@@H](C)C(=O)N[C@@H](C)C(=O)N[C@H](C(=O)N[C@@H](C)C(=O)N[C@@H](CCCCN)C(N)=O)[C@@H](C)CC)C(C)C)C(C)C)C(C)C)[C@@H](C)CC,broth microdilution,,"36 h, 35 °C",> 8 µM
Cc1ccc2nc(C)c(C(=O)C(=O)N(C)C)n2c1,"microbial growth, broth dilution",,,> 128 µM
CCCCCCCCCCCCNC=C1N=C(c2ccc[nH]2)C=C1OC.Cl,broth microdilution,ATCC 90028,24 h,2 µg/mL
CCCCCCCC(=O)NCCCC[C@H](NC(=O)CCCCCCC)C(=O)N[C@@H](CCCCNC(=O)CCCCCCC)C(=O)NCC(=O)NCC(=O)NCC(=O)N[C@@H](CS)C(=O)N[C@@H](CCCNC(=N)N)C(=O)N[C@@H](CCCCN)C(=O)N1CCC[C@H]1C(N)=O,broth microdilution,"14936, RPMI-1640","48 h, 30 °C",> 128 µM
CCOC(=O)C(Cc1ccccc1)NC(=O)N1CCN(CC(OCc2cccc(C)c2)c2ccc(Cl)cc2)CC1 (centres unmarked),"microbial growth, broth dilution",DSY654,,4 µg/mL
Cc1ccc2nc(C)c(C(=O)C(=O)NCc3ccccc3)n2c1,"microbial growth, broth dilution",,,> 128 µM

# A few entries again:
SMILES,test,test system,setting,MIC
CC[C@H](C)[C@H](NC(=O)[C@H](C)NC(=O)[C@@H](NC(=O)[C@H](CC(=O)O)NC(=O)[C@H](CCCCN)NC(=O)[C@H](CO)NC(=O)[C@@H](NC(=O)[C@H](CC(N)=O)NC(=O)[C@H](C)NC(=O)[C@@H](NC(=O)[C@H](CCC(=O)O)NC(=O)[C@H](CCCCN)NC(=O)[C@@H](NC(=O)[C@@H](NC(=O)[C@H](Cc1c[nH]cn1)NC(=O)[C@H](CCCCN)NC(=O)[C@@H](NC(=O)[C@H](CCCCN)NC(=O)[C@H](CCCCN)NC(=O)[C@@H](NC(=O)[C@H](CC(C)C)NC(=O)[C@H](CCCCN)NC(=O)[C@H](CC(N)=O)NC(=O)[C@H](Cc1ccccc1)NC(=O)[C@H](CCCNC(=N)N)NC(=O)[C@H](CCCCN)NC(=O)[C@H](CCCNC(=N)N)NC(=O)[C@H](Cc1ccccc1)NC(=O)CN)C(C)C)C(C)C)[C@@H](C)O)[C@@H](C)CC)[C@@H](C)O)C(C)C)C(C)C)C(=O)N[C@H](C(=O)N[C@@H](C)C(=O)NCC(=O)N[C@@H](CO)C(=O)NCC(=O)N[C@H](C(=O)N[C@@H](C)C(=O)N[C@H](C(=O)NCC(=O)N[C@@H](C)C(=O)N[C@@H](C)C(=O)N[C@@H](CCSC)C(N)=O)C(C)C)C(C)C)C(C)C,broth microdilution,"FH2173, CAMHB",,> 1020 µg/mL
